# Results pooled from the literature.
# ± marks the error that the study gave.
SMILES,test,test system,setting,scale,inhibition [%]
COc1c2c(cc3oc(COC4OC(CO)C(O)C(O)C4O)cc(=O)c13)OC(C(C)(C)O)C2 (stereo not shown),ear edema weight,"mouse, xylene ear edema","oral, 2 mg/kg",reference: vehicle,22
NS(=O)(=O)c1ccc(-n2cc(CNc3ccc(Cl)cc3)c(-c3ccc(OCc4ccccc4)cc3)n2)cc1,acetic acid-induced writhing,mouse,"oral, 20 mg/kg, 30 min pretreatment, writhes counted over 20 min, added: 0.6% acetic acid ip",,57.2 ± 1.55
CCCCCC(C)(O)/C=C/C=C\C=C\C=C\[C@@H](O)[C@@H](O)CCCC(=O)OC (mixture of isomers),PMN infiltration,"mouse, dorsal air pouch","intrapouch, 10 µg/pouch, 4 h, added: TNF-α 20 ng",,~50
C=CC(=O)N1C[C@H](C)N(c2nc(OC[C@@]34CCCN3C[C@H](F)C4)nc3c(F)c(-c4ccc(F)c5sc(N)c(C#N)c45)c(C(F)(F)F)cc23)C[C@H]1C,measured: phospho-ERK,mouse MIA PaCa-2 Matrigel plug,"30 mg/kg single dose, 24 h",,83
Cc1ccc(NCc2cn(-c3ccc(S(N)(=O)=O)cc3)nc2-c2ccc(OCc3ccccc3)cc2)cc1,analgesic activity,"mouse, acetic acid writhing","oral, 20 mg/kg, 30 min before acetic acid",reference: vehicle,73.7
COC(=O)C1OC(Oc2c(-c3ccccc3)oc3cc(O)c(O)c(O)c3c2=O)C(O)C(O)C1O (stereo not shown),paw oedema,"mouse, carrageenan-induced paw oedema","oral, 2 mg/kg, 0 h",reference: 10 h,13.8
Clc1ccccc1NCc1cn(-c2ccccc2)nc1-c1ccc(OCc2ccccc2)cc1,acetic acid-induced writhing,mouse,"oral, 20 mg/kg, 30 min pretreatment, writhes counted over 20 min, added: 0.6% acetic acid ip",,53.5 ± 2.26
COc1c2c(cc3oc(C)cc(=O)c13)O[C@H](C(C)(C)O[C@@H]1O[C@H](CO)[C@@H](O)[C@H](O)[C@H]1O)C2,ear edema weight,"mouse, xylene ear edema","oral, 2 mg/kg",reference: vehicle,9
Nc1nc2cnc(C(=O)N3CCOC[C@@H]3c3ccc(C(F)(F)F)cc3)cc2c2c1COC2,measured: SDMA,"mouse, HCT-116 MTAP wild-type xenograft, tumour","oral, 100 mg/kg once daily, 4 doses, 4 h after last dose",reference: vehicle,> 50
Fc1ccccc1NCc1cn(-c2ccccc2)nc1-c1ccc(OCc2ccccc2)cc1,acetic acid-induced writhing,mouse,"oral, 20 mg/kg, 30 min pretreatment, writhes counted over 20 min, added: 0.6% acetic acid ip",,33.2 ± 2.37
"CC1=C2C(=O)C3=CC(C)(C)N=C4CCCC2(CC(C)(C)N1)C34O (single isomer, unassigned; (+))",acetic acid-induced writhing,mouse,"intraperitoneal, 1 mg/kg, 0.5 h, writhes counted over 30 min",,78.6 ± 1.5
NS(=O)(=O)c1ccc(-n2cc(CNc3ccccc3Cl)c(-c3ccc(OCc4ccccc4)cc3)n2)cc1,analgesic activity,"mouse, acetic acid writhing","oral, 20 mg/kg, 30 min before acetic acid",reference: vehicle,73.6
CC(C)c1cnc(-c2cc(Cl)ccc2F)cc1Nc1ccncc1C(=O)NC(CO)CO,measured: pSMAD2,"4T1 tumour-bearing mouse, tumour","30 mg/kg twice daily, 0 to 8 h average",reference: vehicle,63
CC1=NC(C)(C)CC2(C)CC3=NC(C)(C)CC(C)(O)C34OC124 (racemic),acetic acid-induced writhing,mouse,"intraperitoneal, 0.04 mg/kg, 0.5 h, writhes counted over 30 min",,49.7 ± 0.8
COc1c2c(cc3oc(CO)cc(=O)c13)O[C@H](C(C)(C)O)C2,ear edema weight,"mouse, xylene ear edema","oral, 1 mg/kg",reference: vehicle,35
Nc1nc2cc(CC[C@H]3C[C@@H](n4ccc5c(N)ncnc54)[C@H](O)[C@@H]3O)ccc2cc1Br,"PRMT5-dependent methylation, measured: SmD1/3-Me2","mouse NCI-H1048 xenograft, tumour","0.1 mg/kg daily, 6 days",,25
CC(=O)[C@]12NC(C)(C)C[C@@]1(C)C(=O)C1=C2c2c(c3c4n2C(C)(C)CC2=C4[C@@]4(CC(C)(C)N[C@@](C)(C4)C2=O)CC3(C)C)C(=O)C(C)(C)N1 (racemic),acetic acid-induced writhing,mouse,"intraperitoneal, 0.2 mg/kg, 0.5 h, writhes counted over 30 min",,57.3 ± 1.7
Brc1ccc(NCc2cn(-c3ccccc3)nc2-c2ccc(OCc3ccccc3)cc2)cc1,acetic acid-induced writhing,mouse,"oral, 20 mg/kg, 30 min pretreatment, writhes counted over 20 min, added: 0.6% acetic acid ip",,29.6 ± 1.85
Cc1cc(NC(=O)[C@H](O)c2cc(F)cc(F)c2)ccc1-c1cnc(N)c(C(=O)NC(C)C)c1,measured: phospho-PERK,"mouse, pancreas","oral, 100 mg/kg, 12 h",,> 80

# A few entries again:
SMILES,test,test system,setting,scale,inhibition [%]
CC(=O)[C@]12NC(C)(C)C[C@@]1(C)C(=O)C1=C2c2c(c3c4n2C(C)(C)CC2=C4[C@@]4(CC(C)(C)N[C@@](C)(C4)C2=O)CC3(C)C)C(=O)C(C)(C)N1 (racemic),acetic acid-induced writhing,mouse,"intraperitoneal, 0.2 mg/kg, 0.5 h, writhes counted over 30 min",,57.3 ± 1.7
